Measurements gathered from unrelated publications.
± gives the spread as reported.

With `CN1CCCC(CSc2nc(N)c3c4c(sc3n2)CC(c2ccccc2)CC4)C1` (stereo not drawn) the metabolized compound was 75 ± 3% (mouse liver microsomes; 30 min).
The AUC(0-24h) of `CC(C)C[C@@H](NC(=O)[C@H](NC(=O)[C@H]1CCCN1)[C@H](C)O)C(=O)N[C@H](Cc1c[nH]cn1)C(=O)N[C@@H](C(=O)N[C@H](Cc1c[nH]cn1)C(=O)N[C@H](CC(N)=O)C(=O)N[C@H](CCCNC(=N)N)C(=O)N[C@H](CCCNC(=N)N)C(=O)N[C@H](CCCNC(=N)N)C(=O)N[C@H](CCCNC(=N)N)C(=O)N[C@H](CCCNC(=N)N)C(N)=O)[C@H](C)O` is reported as 35.6 ng·h/mL (healthy human, plasma; oral, 1 160 mg daily, day 1, mean).
The intrinsic clearance of `CN(C(=O)Cc1cccc(Cl)c1)[C@@H]1CCCC[C@H]1N1CCCC1` is reported as 0.6 mL/min/g (human liver microsomes; 0.5 µM, added: NADPH).
`CC(C)[C@H](N)C(=O)N[C@@H](Cc1ccc(O)cc1)C(=O)N[C@@H](Cc1ccc(O)cc1)C(=O)N[C@@H](CCCNC(=N)N)C(=O)O` has a solubility of no less than 1000 µM (Lantus formulation; pH 4).
For `CN(C(=O)Cc1cccc(F)c1)[C@@H]1CCCC[C@H]1N1CCCC1`, the intrinsic clearance was 9.9 mL/min/g (mouse liver microsomes; 0.5 µM, added: NADPH).
With `NC(=O)CC[C@H](NC(=O)[C@H](CCC(N)=O)NC(=O)[C@H](CC(N)=O)NC(=O)[C@H](CC(N)=O)NC(=O)CNC(=O)Cc1ccc2ccccc2c1)C(=O)N[C@@H](CC(N)=O)C(=O)N[C@@H](Cc1ccc(OP(=O)(O)O)cc1)C(=O)O` the fiber width was 6 ± 2 nm (TEM; ALP-formed hydrogel in PBS; 0.5 wt %, pH 7.4).
For `CC(C)(C)N1CCC(NC(=O)c2ccc(C(F)(F)F)cc2Cl)CC1`, the remaining compound was 98.2% (human plasma; 6 h).
Under “potentiation of amikacin”, `NC[C@@H](NC[C@@H]1CCCN1C[C@@H](CO)NC[C@@H](NCCC1CC2CCC1C2)c1ccccc1)c1ccccc1` (stereo partly drawn) is recorded as 1.5 fold (Klebsiella pneumoniae; bacterial growth; 8 µM, fold shift of IC50, added: amikacin).
`C[C@H](CS)C(=O)N[C@@H](Cc1c[nH]c2ccccc12)C(=O)O` — result for “MIC of meropenem”: 8 µg/mL (Klebsiella pneumoniae; IMP-1 producing; 25 µM, added: meropenem).
For `Cc1ccccc1S(=O)(=O)Nc1cccc(C(=O)NC2CCN(c3ncnc4[nH]cnc34)CC2)c1`, the viability was 100% (A549-ACE2; 7.407 µM).
With `CN(C(=O)Cc1c(Cl)cccc1Cl)[C@@H]1CCCC[C@H]1N1CCCC1` the intrinsic clearance was 11 mL/min/g (mouse liver microsomes; 0.5 µM, added: NADPH).
With `NCCNCCSc1ccccc1` the partition coefficient was 0.26 ± 0.03 (n-octanol/phosphate buffer; 50 µg/mL, pH 7.4).
For `CC(=O)N[C@H]1CC(=O)NCCCC[C@@H](C(N)=O)NC(=O)[C@@H](Cc2ccccc2)NC(=O)[C@@H]2CCCN2C(=O)[C@H](CC(=O)O)NC(=O)[C@H](CC(=O)O)NC(=O)[C@H](Cc2ccc(OP(=O)(O)O)cc2)NC(=O)[C@H](CCC(=O)O)NC1=O`, the log Pe was -5.24 (PAMPA; 8 h).
`[11CH3]Nc1ccc(C(=O)C2CCN(C3Cc4ccccc4CC3O)CC2)cc1` (single isomer, unassigned) has an uptake of 0.262 %ID/g (Sprague-Dawley rat, cortex; 30 min).
The viability of `COc1ccc(S(=O)(=O)Nc2cccc(C(=O)NC3CCN(c4ncnc5[nH]cnc45)CC3)c2)cc1` is reported as 100% (A549-ACE2; 0.01016 µM).

For quick reference, copied from above:
For `CC(=O)N[C@H]1CC(=O)NCCCC[C@@H](C(N)=O)NC(=O)[C@@H](Cc2ccccc2)NC(=O)[C@@H]2CCCN2C(=O)[C@H](CC(=O)O)NC(=O)[C@H](CC(=O)O)NC(=O)[C@H](Cc2ccc(OP(=O)(O)O)cc2)NC(=O)[C@H](CCC(=O)O)NC1=O`, the log Pe was -5.24 (PAMPA; 8 h).
